Experimental data collected from several papers.
“And” joins repeats or separate records; there may be more than shown. ± marks the error that the study gave.

| SMILES | test | system | setting | how to read | measurement | result |
| --- | --- | --- | --- | --- | --- | --- |
| O=C(O)CNC(=O)Cc1ccccc1 |  | ventricular cardiomyocytes, C57BL/6 mouse | dose not given, 0.556 s |  | sarcomere length | 1.62 µm |
| CC[C@@H](C)[C@H](N)C(=O)O | binding, MIDAS equilibrium dialysis LC-MS | A2AR-BRIL thermostabilized | concentration not given | baseline: no-protein control | log2 fold change | -0.128 |
| Cc1cc(C)c(CNC(=O)c2cc(Cl)c3c(c2C)O[C@@](C)([C@H]2CC[C@H](N(C)C)CC2)O3)c(=O)[nH]1 | IWG 2007 criteria | human, relapsed/refractory angioimmunoblastic T-cell lymphoma | dose not given |  | best overall response CR | 45% |
| Cc1coc([C@H]2C[C@H]3[C@@H](CF)SC(N)=N[C@@]3(c3ccc(F)cc3F)CO2)n1 | item: Aβx-40 | Mus musculus wild-type, cerebrospinal fluid | subcutaneous, 80 mg/kg, 14 h |  | Aβ40 level | 0.96 ng/mL |
| NC(=O)c1cnc2[nH]ccc2c1N[C@@H]1[C@@H]2CC3C[C@H]1C[C@@](O)(C3)C2 | flow cytometry | Japanese healthy men, blood | oral, 30 mg twice daily, 72 h after day 7 dose | baseline: baseline | CD4+ naive T-cell change | -0.7% |
| COc1nnc2ccc(N3CCC(c4ccc(OCCN5CCN(C)C(=O)[C@H]5C)cc4)CC3)nn12 |  | human patients | 10 mg twice daily, 1.5-fold above baseline, monotherapy and combination cohorts |  | time above HEXIM1 threshold | 7.82 h |
| Cc1cc(C(C)(C)C)c(O)c(C(C)(C)C)c1 | DPPH | methanol | concentration not given, 30 min |  | DPPH radical scavenging | 31.3 ± 0.1% |
| Cc1noc(C)c1-c1cc(C(O)(c2ccccn2)c2ccccn2)c2nc(C3CC3)[nH]c2c1 | item: HEXIM1 expression | human, peripheral blood | 4 mg, day 1, 1604 study |  | maximum induction | 3% |
| O=C1O[C@H]([C@@H](O)CO)C(O)=C1O | FRAP |  | 80 µM |  | ferric reducing power | 37.6% |
| C[C@H]1C[C@H]2CSC(N)=N[C@@]2(c2nc(NC(=O)c3ccc(OC(F)F)cn3)cs2)CO1 | item: Aβx-40 | healthy adults, plasma | 50 mg once daily, day 4 | baseline: placebo | percent change from baseline | -63.5% |
| N#Cc1ccc(Oc2ccc3c(c2)COB3O)cc1 |  | mouse, oxazolone dermatitis, plasma | topical, 20 mg/ear, once daily, unit not given | baseline: vehicle | IL6 level difference | -40.8 |
| N#Cc1ccc2c(-c3ccncc3)c(-c3ccc(F)cc3)nn2c1 | kinase binding, competitor, MIB/MS competition, item: CAK1 | Candida albicans cell lysate | 10 µM | baseline: DMSO | log2 fold change | 0.29 |
| Cc1cc(Nc2cc3ncccc3c(N[C@@H]3C[C@H]4CC[C@@H](C3)N4CCC#N)n2)n[nH]1 |  | moderate-severe ulcerative colitis patients | 270 mg, day 28, unit not given | baseline: baseline | change in total Mayo | -2.5 |
| O=CNc1ccccc1C(=O)O | binding, MIDAS equilibrium dialysis LC-MS | A2AR-BRIL thermostabilized | concentration not given | baseline: no-protein control | log2 fold change | -0.223 |
| CSCCNc1nc(SCCC(F)(F)F)nc2c1ncn2[C@@H]1O[C@H](COP(=O)(O)OP(=O)(O)C(Cl)(Cl)P(=O)(O)O)[C@@H](O)[C@H]1O | platelet aggregation, light transmittance aggregometry | human, platelet-rich plasma | dose not given, 15 min, IPA above 90 %, together with: TRAP 5 µM | baseline: patients | patients with IPA above threshold | 5.1% |
| Oc1ccc([C@@H]2Oc3ccc(O)cc3[C@@H]3CCC[C@@H]32)cc1 |  | mouse, male, CCl4 liver fibrosis | oral, 5 mg/kg daily |  | picrosirius red reduction | 17% |
| N#CCC1CCN(c2nc(Nc3ccc(N4CCC(O)CC4)cc3)c3c(=O)[nH]ncc3n2)CC1 | Olink multiplex | human, serum | 80 mg, day 29, unit not given | baseline: baseline | GIF level change | 1.41 |
| CCO[C@H]1CCN(Cc2c(OC)cc(C)c3[nH]ccc23)[C@H](c2ccc(C(=O)O)cc2)C1 |  | PNH patients, blood | oral, 50 mg then 200 mg, week 12, mean absolute change | baseline: baseline | PNH RBC clone size | 46.8% |
| COc1ncc(-c2nc3c(n2C(C)C)[C@H](c2ccc(Cl)cc2)N(c2cc(Cl)cn(C)c2=O)C3=O)c(OC)n1 | International Working Group criteria | human acute myeloid leukemia patients | dose not given, response CRi, all patients |  | best overall response | 7.7% |
| O=C(OC(C(F)(F)F)C(F)(F)F)N1CCN(Cc2cccc(Oc3ccccc3)c2)CC1 | PET blocking study | rhesus monkey, brain HIP | 0.03 mg/kg, compound pretreatment, together with: [18F]T-401 tracer |  | k4 | 0.134 min⁻¹ |
| CO[C@H]1CC[C@H](N2C(=O)CNc3ncc(-c4ccc(C(C)(C)O)nc4)nc32)CC1 | flow cytometry | stimulated B cells, human, blood | 30 mg single dose, 5 h, median | baseline: baseline | pS6RP change from baseline | -63.5% |
| CCC(C)C(=O)NCC(=O)O (centres unmarked) | binding, MIDAS equilibrium dialysis LC-MS | A2AR-BRIL thermostabilized | concentration not given | baseline: no-protein control | log2 fold change | -0.789 |
| O=P(O)(O)C(Cl)(Cl)P(=O)(O)O | endothelial activation, immunostaining | mouse, sham, cortical capillaries | dose not given |  | VCAM-1 level | 5.67 MFI and 4.71 MFI and 8.21 MFI and 7.97 MFI |
| Cc1cc([C@H]2C[C@H]3[C@@H](CF)SC(N)=N[C@@]3(c3ccc(F)cc3F)CO2)on1 | item: Aβx-40 | Mus musculus wild-type, cerebrospinal fluid | subcutaneous, 30 mg/kg, 7 h |  | Aβ40 level | 0.81 ng/mL |
| CC(CCc1ccc(O)cc1)NCCc1ccc(O)c(O)c1 (centres unmarked) |  | anaesthetised instrumented rat | iv infusion, 1 µg/kg/min, 15 min, unit not given | baseline: baseline | stroke volume change | 2.9 ± 2.2 |

| SMILES | test | system | setting | how to read | measurement | result |
| --- | --- | --- | --- | --- | --- | --- |
| N#Cc1ccn2c(-c3ccncc3)c(-c3ccc(F)cc3)nc2c1 | kinase binding, competitor, MIB/MS competition, item: HRR25 | Candida albicans cell lysate | 1 µM | baseline: DMSO | log2 fold change | -0.419 |
| OC(CCN1CCCCC1)(c1ccccc1)C1CC2C=CC1C2 (centres unmarked) | resting-state EEG | healthy elderly humans | oral, 4 mg, eyes closed, LS mean |  | EEG Beta2-power Fz-Cz | 0.9 µV² |
| O=C(CO)N[C@H]1[C@H]([C@H](O)[C@H](O)CO)O[C@](O)(C(=O)O)C[C@@H]1O | binding, MIDAS equilibrium dialysis LC-MS | A2AR-BRIL thermostabilized | concentration not given | baseline: no-protein control | log2 fold change | -0.155 |
| Cn1cc(Nc2nccc(-c3ccc4c(c3)CN(C3COC3)CC[C@H]4NC(=O)c3cn(C(C)(C)C)nn3)n2)cn1 | item: GDNF Family Ligand-Receptor Interactions | splenic B cells, Mus musculus | 30 mg/kg, together with: IgD activation | baseline: vehicle, direction not given | pathway activation z-score | 3 |
| CC(C)NCC(O)c1ccc(O)c(O)c1 (centres unmarked) |  | ventricular cardiomyocytes, C57BL/6 mouse | dose not given, 0.012 s |  | sarcomere length | 1.72 µm |
| Cc1n[nH]c2ccc(-c3cc(OC[C@@H](N)Cc4ccccc4)cnc3-c3ccoc3)cc12 | kinase binding, competitor, MIB/MS competition, item: KSP1 | Candida albicans cell lysate | 100 nM | baseline: DMSO | log2 fold change | 0.0498 |
| Nc1nc2c(ncn2[C@@H]2O[C@H](COP(=O)(O)OP(=O)(O)O)[C@@H](OP(=O)(O)OP(=O)(O)O)[C@H]2O)c(=O)[nH]1 | SILAC mass spectrometry, item: typA protein | Escherichia coli lysate | concentration not given | baseline: heavy over light | log2 fold change | 3.42 |
| O=C(O)c1cccnc1C(=O)O | binding, MIDAS equilibrium dialysis LC-MS | A2AR-BRIL thermostabilized | concentration not given | baseline: no-protein control | log2 fold change | 0.0822 |
| Cc1cc([C@H]2C[C@H]3[C@@H](C)SC(N)=N[C@@]3(c3ccc(F)cc3F)CO2)on1 | item: Aβx-40 | wild-type mouse, brain | subcutaneous, 50 mg/kg, 7 h |  | brain Aβ40 level | 1.12 ng/g |
| CC1=NN(c2ccccc2)C(=O)C1 | Y-maze | Rattus norvegicus, MCAO/R model | concentration not given, day 21 post-stroke |  | spontaneous alternation rate | 70.2% |
| Cc1ncc(C[n+]2csc(CCO[P@](=O)(O)OP(=O)(O)O)c2C)c(N)n1 | binding, MIDAS equilibrium dialysis LC-MS | A2AR-BRIL thermostabilized | concentration not given | baseline: no-protein control | log2 fold change | -0.292 |
| C=CCn1c(=O)c2cnc(Nc3ccc(N4CCN(C)CC4)cc3)nc2n1-c1ccc2c(n1)[C@@](O)(CC)CC2 |  | SW837, NOD/SCID mice, xenograft | oral, 80 mg/kg once daily, day 35 | baseline: vehicle | tumour growth inhibition | 82.9% |
| NC(=O)C1=CN([C@@H]2O[C@H](COP(=O)(O)OP(=O)(O)OC[C@H]3O[C@@H](n4cnc5c(N)ncnc54)[C@H](O)[C@@H]3O)[C@@H](O)[C@H]2O)C=CC1 | binding, MIDAS equilibrium dialysis LC-MS | A2AR-BRIL thermostabilized | concentration not given | baseline: no-protein control | log2 fold change | -0.987 |
| C[C@H](Oc1ccc(Br)cc1-c1ccon1)C(=O)O | first response latency | human, tibialis anterior muscle | 50 mg, 30 Hz, single ascending dose |  | difference from placebo | 0.162% |
| CC(CNC(N)=O)C(=O)O (racemic) | binding, MIDAS equilibrium dialysis LC-MS | A2AR-BRIL thermostabilized | concentration not given | baseline: no-protein control | log2 fold change | -0.0538 |
| N#Cc1ccc2c(c1)[C@H]1CCCN(C(=O)c3ccc4[nH]cnc4c3)[C@H]1C2 |  | human | 360 mg, day 15, adjusted mean | baseline: baseline, placebo-corrected | fasting plasma glucose change | 8% |
| COc1ccc(-c2cncc(N[C@@H](C)c3cccc(NC(=O)c4cncc(C)c4)c3)n2)cc1OC | item: rno-miR-369-3p | rat SU5416/hypoxia model, lung | dose not given, unit not given | baseline: SU5416/hypoxia vehicle | delta delta Ct | -0.242 |
| O=C1O[C@H]([C@@H](O)CO)C(O)=C1O |  |  | 1 mg/mL, 60 min |  | DPPH radical scavenging | 82.3% |
| CCCCCN1C[C@H](O)[C@@H](O)[C@H](O)[C@@H]1CO | RNA sequencing, item: 327 disease-specific DEGs | Hexb-/- mouse, hippocampus | 300 mg/kg/day | direction not given | genomic disease score | 0.52 |
| CC[C@H]1[C@@H](O)[C@@H]2[C@H](CC[C@]3(C)[C@@H]([C@H](C)CCC(=O)O)CC[C@@H]23)[C@@]2(C)CC[C@@H](O)C[C@@H]12 |  | C57BL/6J mouse, AMLN diet NASH model | dose not given, terminal |  | plasma insulin | 0.7 ± 0.1 ng/mL |
| c1ccc(-c2n[nH]cc2-c2ccnc3ccccc23)nc1 | kinase binding, competitor, MIB/MS competition, item: FPK1 | Candida albicans cell lysate | 100 nM | baseline: DMSO | log2 fold change | 1.45 |
| COc1ccc(F)cc1C(=O)NCc1ccc(-c2nn([C@@H](C)C(F)(F)F)c(N)c2C(N)=O)cc1 |  | Waldenström macroglobulinemia patients | dose not given, at least one prior BTK inhibitor |  | overall response rate | 69% |
| CC1=CC(=O)CC(C)(C)[C@@]1(O)/C=C/C(C)=C\C(=O)O | RNA-seq, item: AT1G04220 | Arabidopsis thaliana Col seedlings | dose not given | baseline: DMSO | log2 fold change | 4.3 |
| O=C(O)CN1Cc2cccc(n2)CN(CC(=O)O)Cc2cccc(n2)C1 | HPLC | water | 25 °C, Mn complex dissociation, together with: 25 equiv Zn2+ |  | transmetallation rate constant | 0.00068 s⁻¹ |
| CC(C)[C@H](C(=O)Nc1ccc(C(=O)NO)cc1)c1ccccc1 | MRI volumetry | human, left parieto-occipital meningioma | dose not given, day 2790 post-treatment |  | tumour volume | 0.574 cm³ |

Some of these lines once more:
| SMILES | test | system | setting | how to read | measurement | result |
| --- | --- | --- | --- | --- | --- | --- |
| O=C(CO)N[C@H]1[C@H]([C@H](O)[C@H](O)CO)O[C@](O)(C(=O)O)C[C@@H]1O | binding, MIDAS equilibrium dialysis LC-MS | A2AR-BRIL thermostabilized | concentration not given | baseline: no-protein control | log2 fold change | -0.155 |
| Cn1cc(Nc2nccc(-c3ccc4c(c3)CN(C3COC3)CC[C@H]4NC(=O)c3cn(C(C)(C)C)nn3)n2)cn1 | item: GDNF Family Ligand-Receptor Interactions | splenic B cells, Mus musculus | 30 mg/kg, together with: IgD activation | baseline: vehicle, direction not given | pathway activation z-score | 3 |
| CC(C)NCC(O)c1ccc(O)c(O)c1 (centres unmarked) |  | ventricular cardiomyocytes, C57BL/6 mouse | dose not given, 0.012 s |  | sarcomere length | 1.72 µm |
| Cc1n[nH]c2ccc(-c3cc(OC[C@@H](N)Cc4ccccc4)cnc3-c3ccoc3)cc12 | kinase binding, competitor, MIB/MS competition, item: KSP1 | Candida albicans cell lysate | 100 nM | baseline: DMSO | log2 fold change | 0.0498 |
| Nc1nc2c(ncn2[C@@H]2O[C@H](COP(=O)(O)OP(=O)(O)O)[C@@H](OP(=O)(O)OP(=O)(O)O)[C@H]2O)c(=O)[nH]1 | SILAC mass spectrometry, item: typA protein | Escherichia coli lysate | concentration not given | baseline: heavy over light | log2 fold change | 3.42 |
| O=C(O)c1cccnc1C(=O)O | binding, MIDAS equilibrium dialysis LC-MS | A2AR-BRIL thermostabilized | concentration not given | baseline: no-protein control | log2 fold change | 0.0822 |
| Cc1cc([C@H]2C[C@H]3[C@@H](C)SC(N)=N[C@@]3(c3ccc(F)cc3F)CO2)on1 | item: Aβx-40 | wild-type mouse, brain | subcutaneous, 50 mg/kg, 7 h |  | brain Aβ40 level | 1.12 ng/g |
| CC1=NN(c2ccccc2)C(=O)C1 | Y-maze | Rattus norvegicus, MCAO/R model | concentration not given, day 21 post-stroke |  | spontaneous alternation rate | 70.2% |
